Measured values from different studies.
Numbered parts are unrelated; each lists some results of a single study. Positions count from the first letter of the parent shown.

Sample 1
Target: ABI1, truncated, D143A, DHFR fusion (Arabidopsis thaliana, UniProt P49597)
Method: DHFR PCA, dose-response
Sample: yeast
Notes: Hill fit, mean, not affinity
Added: (+)-ABA, dose series
Direction: lower = more sensitive
Endpoint: ABA EC50
Starting sequence: PYL1, truncated, DHFR fusion (Arabidopsis thaliana, UniProt Q8VZS8); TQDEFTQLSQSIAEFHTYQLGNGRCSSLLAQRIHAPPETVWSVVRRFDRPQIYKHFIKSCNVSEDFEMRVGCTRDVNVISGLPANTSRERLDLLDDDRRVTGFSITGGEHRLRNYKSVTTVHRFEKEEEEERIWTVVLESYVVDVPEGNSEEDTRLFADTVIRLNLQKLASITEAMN
E131L: 4.02 µM
R163T: 4.14 µM
G107I: 658 µM
E152Y: 3.72 µM
S11F: 3.06 µM
D96N: 17.5 µM
E38R: 44.5 µM
L138T: 200 µM
V70C: 14.3 µM
E125S: 2.48 µM
F66K: 6.38 µM
D95Q: 72.4 µM
Q10Y: 8.07 µM

Sample 2
Target: CCNE1, cyclin fold, Cln2 fusion (human)
Method: yeast growth competition, sequencing
Sample: yeast
Notes: strong parent motif
Reference: not given
Direction: higher = stronger binding
Endpoint: normalised enrichment score
Starting sequence: RBL2 docking peptide (human); STTRRRLFVENDS; partner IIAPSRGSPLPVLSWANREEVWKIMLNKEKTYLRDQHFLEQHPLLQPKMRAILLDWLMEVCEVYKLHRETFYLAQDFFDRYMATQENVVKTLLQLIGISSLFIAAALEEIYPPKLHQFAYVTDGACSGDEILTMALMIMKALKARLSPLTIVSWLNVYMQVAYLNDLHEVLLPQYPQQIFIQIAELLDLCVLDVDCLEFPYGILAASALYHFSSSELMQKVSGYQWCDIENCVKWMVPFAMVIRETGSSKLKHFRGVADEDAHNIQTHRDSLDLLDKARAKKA
N11M: 5.23
V9C: 6.13
R6Q: 5.53
T3E: 2.22
R5E: -0.0208
T2H: 6.85
R4F: 3.04
S13Y: 6.21
F8I: 0.205
L7T: 0.154
T3L: 2.54
S1Y: 5.44
V9L: 5.09
R4W: 0.355
S1L: 5.66

Sample 3
Target: RNA binding protein fox-1 homolog 2, RRM domain, GST-SBP tag (RBFOX2, Homo sapiens, UniProt O43251-10, residues 100-194)
Method: RNA Bind-n-Seq
Form: RNA
Sample: in vitro
Tested at: 365 nM
Notes: natural RNA segment, single round, ends assumed
Reference: no-protein control
Direction: higher = stronger binding
Endpoint: RBNS enrichment (R)
All sequences stand within: GGGAGUUCUACAGUCCGACGAUC … UGGAAUUCUCGGGUGCCAA
Construct (chain): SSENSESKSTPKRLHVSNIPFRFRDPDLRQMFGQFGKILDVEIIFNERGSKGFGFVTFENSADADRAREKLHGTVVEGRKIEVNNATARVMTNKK
GGCCUGGCCAGCUAUCCUUCUCUAUGCAAAUGCGUCAAAGCCAUGACUGCUGGAACCCAAAACUGACAAGGUUUAUUUUUUCCAGAGCCGGUGGCUGGUCUUCCAUUUAC: 0.256
UGGUCCCCUCUGCUCUGUUCCCUCCUCCUGUGGGAAGGGACUCGGAAGCUUGUCUGCCCCUCACCAGAGGUGGCCUCUGCACAUGGCACACCAGCCGGGGCUGUACCGCA: 4.98
GGGGCCUCUGUCAUUGUCUCAAAGACAGAGCUUAAAGAGGUCAGAAUGAGUUCUCUGUUGUGCCCCCACUGCAGCUGUCUCUUGUGCUCUCCAGGUAUGCAGCUCAUAUG: 0.317
CGGACCCUCCUCUUUGGGCCUCGUGAGCUUUUUUGCUUAUCAUGUUCCAUUUCGUGCCGCUUUCCCCCUUCAAGAUGCCAUUUGGAGGGUAGGGGAUCUGCUUCCCACUG: 0.294
AAGAGGUUAGCUUUGGCAUUGGAAGAUGAGAUUUUUGCUUACCUGUAGUAUUUCUGUACAUACCUGUUUCCAGCAACUUCAGUGUCAAUGUUUUUGAUUUAUUUGUGUCU: 0.425
CUGUCCCCAUGAGCGGAGUCUGUCCUCUGCUCUUCUGCAGUCAGGUCACUGCCUACUGCCUGGGGGCUCUAGUCAUUCCAGUGGAAGACGAAUGUAACCUGCGUGGUGAU: 0.401
UUACUUUAAGAUCUGUAGAAAUAAACCUAAGUUAAUUUUCCCCCAAAUCACGAGCAUCCGUGAUGGGGUAGCCAAGCUGUUAAGGUGGCAGGAGGCUGGUCAGCGUCGGG: 0.547
AGCUUUCACCAAGCUCUGGCCUCCAGGGAGCUGUGUCUUUCUCUGUCCCAUUAAGAUUUGGGCACAGAUAAGACAUCUUCCACUUUCCAUCCUUCCUACAGUUAGAGCCC: 0.338

Sample 4
Target: Fragile X messenger ribonucleoprotein 1, C-terminal low-complexity region (Fmr1, Mus musculus, UniProt P35922)
Method: RNA Bind-n-Seq
Form: RNA
Sample: in vitro
Tested at: 200 nM
Notes: whole 134-nt RNA, ends assumed
Added: 150 mM LiCl
Reference: input library
Direction: higher = stronger binding
Endpoint: log2 enrichment
Each molecule: 7-deaza-guanosine replaces G
GGGAGUUCUACAGUCCGACGAUCCACAGACAACACGCACCCACACAGACACAGAGGGAAGGGGUUGGGAAAAGGACAGGGUGCACAGCAGGGCGGGGUAGGACCCCAGCCCCUUGGAAUUCUCGGGUGUCAAGG: 0.271
GGGAGUUCUACAGUCCGACGAUCUCCUGUGCUACACAUCGUAUGUACCGAAUCGGUUUUUUUGGAAAAAAAGGAAAAAAAGGAAAGUAUUAUGUUACGCCGUUCGGAUCUGCAUGGAAUUCUCGGGUGUCAAGG: -2.42
GGGAGUUCUACAGUCCGACGAUCUCAAGUCCUGUGCUACACAUCGUAUGUACCGAAUCGGGCCGGGCCGGGGCCGGGAAAGUAUUAUGUUACGCCGUUCGGAUCUGCACUUCCUGGAAUUCUCGGGUGUCAAGG: 0.123
GGGAGUUCUACAGUCCGACGAUCCCUGUGCUACACAUCGUAUGUACCGAAUCGGAAAAAAAGGGGAAAAAAAGGAAAAAAAGGGAAAGUAUUAUGUUACGCCGUUCGGAUCUGUGGAAUUCUCGGGUGUCAAGG: -0.226

Sample 5
Target: Interferon regulatory factor 5, full length, phosphomimetic (IRF5, Homo sapiens, UniProt Q13568-2, residues 1-514, S451D/S453D/S456D/S462D)
Method: protein-binding microarray
Form: double-stranded DNA, one strand shown
Sample: in vitro
Tested at: 940 nM top
Notes: 60-bp whole probe
Added: salmon DNA 0.4 mg/ml
Reference: random background probes
Direction: higher = stronger binding
Endpoint: fitted relative affinity
All sequences stand within: GCCTAGCAC … GTCTTGATTCGCTTGACGCTGCTG
GACGGACTGGGTATGGGGACGTGCTAG: 0.0195 z-score
GACGGACTGCTTTTCCTGACGTGCTAG: -0.194 z-score
TACGATTTCAGTTTCGAGACGTGCTAG: 4.76 z-score
GAGATCATCCGTTTCTTCTAGTGCTAG: 0.395 z-score
TCTCCTCCCCCTCTGCCACCGTGCTAG: 0.317 z-score
GAGGATTTCGGGACTGGAGACGTGCTA: -0.146 z-score
GACCGTCTCGGACTGGGGACGTGCTAG: 0.528 z-score
GCCGGTCTCGGTATCGGGACGTGCTAG: 5.48 z-score
TCAACCATCTCATATAAAACTGTGCTA: 0.588 z-score
ATGGAAATGCACCCCACGCTGTGCTAG: -0.276 z-score
TATTTTGGAAACTCACAACAGTGCTAG: -0.00473 z-score
TCAATTTTGGTTTTCATACTGTGCTAG: 1.65 z-score
TCACTCATGGCTTTGTAACTGTGCTAG: 0.151 z-score
TCACATGTGCTGTCTCAGACTGTGCTA: -0.44 z-score
TCATTTGTTTCACTTCCTACTGTGCTA: 3.46 z-score
GACGGTTTCGAACTGGGGACGTGCTAG: 4.75 z-score
